Measured values pooled from the literature.
Protocols differ between the studies behind these lines. “And” joins repeats or separate records; there may be more than shown.
MET: Hepatocyte growth factor receptor (MET, Homo sapiens, UniProt P08581)

With `COCC12C(=O)NC3C4(C(OC)CC1O)C1CC5(O)C(OC)C(O)C(OC(C)=O)(C1C5OC(=O)c1ccccc1)C3(O)C(OC)C24` (stereo not drawn) the remaining activity was 105% and 100% (MET; kinase activity, inhibitor, ProQinase kinase profiling; 25 µM; baseline: control).
With `Cc1cccc(O[C@H]2CCC[C@@H](C(C)CNCc3ccncc3)C2)c1` (relative stereo) the inhibition was -5% (MET; kinase activity, kinome panel screening; 10 µM).
With `COc1ccc(C(=O)/C=C/c2ccccc2-c2c[nH]c3ccc(C#N)cc23)c(O)c1` the inhibition was 20% (MET; enzyme activity, inhibitor; 20 µM).
For `Cc1cnc2nc1Nc1cccc(c1)COC/C=C/COCc1cc(ccc1OCCN1CCOCC1)N2`, the remaining activity was 95% (MET (Homo sapiens, UniProt P08581, M1250T); concentration not given; baseline: untreated control).
For `C[C@H]1CN(C(=O)c2cn(-c3ccnc(N)n3)c3cc(C#CC4(O)CCCCC4)ccc23)CCN1`, the inhibition was 4% (MET; enzyme activity, inhibitor, FRET; 1 µM).
`CN1CC[C@@H](COc2cnc(C#N)cc2-c2ccn3nc(NC(=O)C4CC4)cc3c2)C1` has an inhibition of 9% (MET; enzyme activity, inhibitor; 1 µM).
With `NC(=O)[C@@H](O)C[C@H]1CCc2sc3ncnc(O[C@H]4CC[C@H](N5CCOCC5)CC4)c3c21` the inhibition was -6% (MET; enzyme activity, inhibitor; 10 µM).
For `CN1CCN(Cc2ccc(-c3ccc(CO[C@H]4CCC[C@@H]4NC(=O)c4cc(-c5cnn(C)c5)cnc4N)cc3)cc2)CC1`, the inhibition was -2% (MET; enzyme activity, inhibitor; 0.1 µM).
For `C=CC(=O)Nc1cccc(-c2cnc3[nH]cc(C(=O)NC(C)(C)C)c3n2)c1`, the inhibition was 6% and 5% (MET; kinase activity; 0.1 µM).
For `C=C1CCCCCCCCCC(CO)C1=O` (stereo not drawn), the remaining signal was 89% (MET; cell-free assay; 10 µM).
The remaining activity of `O=C=[N][Ru-4]123([n]4c5ccc(O)cc5c5c6c(c7cc(F)c[n+]1c7c54)C(=O)NC6=O)[S+]1CC[S+]2CC[S+]3CC1` (stereo not drawn) is reported as 132% (MET; enzyme activity; 100 nM, human enzyme, added: 10 µM ATP; baseline: untreated).
`CNC(=O)C[C@H](Cc1ccc(C#N)cc1)NC(=O)c1cc(-c2ccc(CN[C@H](C)c3ccc(C)cc3)o2)ccc1Cl` — result for “activity vs control”: 99% (MET; enzyme activity, inhibitor; 1 µM).

Excerpt of the above:
The remaining activity of `O=C=[N][Ru-4]123([n]4c5ccc(O)cc5c5c6c(c7cc(F)c[n+]1c7c54)C(=O)NC6=O)[S+]1CC[S+]2CC[S+]3CC1` (stereo not drawn) is reported as 132% (MET; enzyme activity; 100 nM, human enzyme, added: 10 µM ATP; baseline: untreated).
